Published values gathered from unrelated publications.
Every numbered part comes from another study and shows a few of its results, in no order. Substitutions count along the parent as printed.

Sample 1 — target: vanadate, free oxyanion; technique: microfluidic competitive inhibition; medium: in vitro, cell-free expressed; concentration: not given; direction: lower = stronger binding
Notes: derived from inhibition constants, unchanged parent 676 nM
Starting sequence: PafA, mature enzyme, eGFP fusion (Elizabethkingia meningoseptica, UniProt Q9KJX5); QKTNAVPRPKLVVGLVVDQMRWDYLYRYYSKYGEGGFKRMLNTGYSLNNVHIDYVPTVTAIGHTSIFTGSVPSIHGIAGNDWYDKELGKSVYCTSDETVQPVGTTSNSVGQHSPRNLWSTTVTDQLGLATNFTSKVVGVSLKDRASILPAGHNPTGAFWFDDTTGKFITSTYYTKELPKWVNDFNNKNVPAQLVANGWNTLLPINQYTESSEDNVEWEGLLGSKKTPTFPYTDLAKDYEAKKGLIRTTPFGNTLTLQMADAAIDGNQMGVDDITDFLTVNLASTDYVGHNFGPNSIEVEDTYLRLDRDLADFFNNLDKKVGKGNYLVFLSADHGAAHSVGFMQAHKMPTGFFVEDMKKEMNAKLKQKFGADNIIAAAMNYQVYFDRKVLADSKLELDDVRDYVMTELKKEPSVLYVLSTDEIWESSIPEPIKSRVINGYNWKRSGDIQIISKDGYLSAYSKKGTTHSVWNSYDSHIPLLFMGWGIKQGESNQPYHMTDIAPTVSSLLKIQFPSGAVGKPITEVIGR
Variant	oxyanion analog dissociation constant
F368G	553 nM
I509V	864 nM
K166G	1.08 µM
A240G	715 nM
T121V	827 nM
N186V	678 nM
K409V	645 nM
H289G	2.8 µM
L47V	597 nM
N361V	708 nM
D124G	994 nM
F250G	449 nM
L148V	807 nM
Y231V	674 nM
K393G	599 nM
Y83V	572 nM
A336G	525 nM
V403A	637 nM
G454A	629 nM
K225V	604 nM
L254G	1.18 µM
E218V	533 nM
N290V	885 nM

Sample 2 — technique: protein-binding microarray; form: double-stranded DNA, one strand shown; medium: in vitro; concentration: 940 nM top; notes: 60-bp whole probe; added: salmon DNA 0.4 mg/ml; reference: random background probes; direction: higher = stronger binding; shared flanks, not repeated: GCCTAGCAC … GTCTTGATTCGCTTGACGCTGCTG
Target: Interferon regulatory factor 5, full length, phosphomimetic (IRF5, Homo sapiens, UniProt Q13568-2, residues 1-514, S451D/S453D/S456D/S462D)
Strand	fitted relative affinity [z-score]
GACGGTTTCGGTCTCGCGACGTGCTAG	13.8
GACGGACTGCGGACTGGGGACGTGCTA	-0.46
GACGGTCTCAGACTGGAGACGTGCTAG	-0.582
TCATATTTTTTTCCAGAACTGTGCTAG	1.25
GACGCTTTCGACTTTCGGGACGTGCTA	2.84
TTTGGTTTCGGTTTCGGTTAGTGCTAG	19.9
TCAACTTTCTGAATGCTACTGTGCTAG	0.665
CGTTTTTCATTTTTTTTTTCGTGCTAG	2.14

Sample 3 — technique: RNA Bind-n-Seq; form: RNA; medium: in vitro; concentration: 200 nM; notes: whole 134-nt RNA, ends assumed; added: 150 mM LiCl; reference: input library; direction: higher = stronger binding; each molecule: 7-deaza-guanosine replaces G
Target: Ras GTPase-activating protein-binding protein 1, full length (G3BP1, Homo sapiens, UniProt Q13283)
Chain of UniProt Q13283 (whole entry, looked up): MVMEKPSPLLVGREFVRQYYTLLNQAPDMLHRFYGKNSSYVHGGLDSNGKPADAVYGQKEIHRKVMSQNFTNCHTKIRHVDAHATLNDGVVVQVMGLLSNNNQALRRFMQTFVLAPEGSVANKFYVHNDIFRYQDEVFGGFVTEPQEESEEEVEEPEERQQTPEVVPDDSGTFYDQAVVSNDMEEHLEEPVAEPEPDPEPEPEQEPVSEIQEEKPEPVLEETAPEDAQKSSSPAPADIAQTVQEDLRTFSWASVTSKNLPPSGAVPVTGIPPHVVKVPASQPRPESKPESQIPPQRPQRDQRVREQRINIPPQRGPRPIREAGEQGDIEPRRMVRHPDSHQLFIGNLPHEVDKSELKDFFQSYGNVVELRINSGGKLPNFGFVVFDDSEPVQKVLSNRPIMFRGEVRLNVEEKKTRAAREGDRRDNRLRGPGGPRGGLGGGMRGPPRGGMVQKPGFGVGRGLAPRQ
Shared flanks, not repeated: GGGAGUUCUACAGUCCGACGAUC … UGGAAUUCUCGGGUGUCAAGG
Strand	log2 enrichment
GCCGGAAGUAAAAACAAAUGGAAAUGCUUCGGAUAGUGGCAGGGGUGGGGGUUGCUAAGGAAAGGGUGGGAUGGGAGUGGGUAAAGAGUU	-0.306
CAGUUUAAGAGGGGUUUCAUGCAAGGGCAUGUAAAUAGACAAGAAAAAGAAGAAAAAGAAGCAAUAUAUAAAGAACGUUGGCCAGAUUAU	0.163
GUCCUGUGCUACACAUCGUAUGUACCGAAUCGGGGAAAAAGGAAAAAGGAAAAAGGGGAAAGUAUUAUGUUACGCCGUUCGGAUCUGCAC	-0.049
UGUGAGACUGAAGAUUAUGGAGAAAAGUUUGAUGAAAAUGAUGUGAUUACAUGUUUUGCUGUAAGUUAAAGCUAACUUUCUAUGUAUAAA	-2.15
CCUCAAGUCCUGUGCUACACAUCGUAUGUACCGAAUCGGUGGAGGAAAAAGGAAAGUAUUAUGUUACGCCGUUCGGAUCUGCACUUCCAG	0.396
UAACUUUAGAGGAGGAUCUGCUGGAUAUGGCAGUGGACGUGGAUUUGGGGAUGGCUAUAAUGGGUAUGGAGGAGGACCUGGAGGUGGCAA	0.0106
CUGUGCUACACAUCGUAUGUACCGAAUCGGAAAAAAAGGGGAAAAAAAGGGAAAAAAAGGGGAAAGUAUUAUGUUACGCCGUUCGGAUCU	0.0286
CCUGUGCUACACAUCGUAUGUACCGAAUCGGGGUUUUUUUGGGGUUUUUUUGGGGAGGGGAAAGUAUUAUGUUACGCCGUUCGGAUCUGC	1.13

Sample 4 — target: CCND3, cyclin fold, Cln2 fusion (human); technique: yeast growth competition, sequencing; medium: yeast; notes: weak parent motif; reference: not given; direction: higher = stronger binding; starting sequence: viral docking peptide; TSVRRALFTGGSD
Variant	normalised enrichment score
S12Q	0.286
V3S	-0.357
T9P	-0.0305
R5M	-0.00313
G11M	-0.00899
G11A	0.11
S12E	0.0121
L7K	0.463
F8C	-0.195
A6Y	-0.138
S2C	0.131
G10L	0.619
F8G	-0.115
V3I	0.108
G11V	0.0813
R4G	-0.45
S2F	0.102
T9N	0.0451
A6W	-0.256
S2I	0.0728
F8R	-0.0417
F8T	0.239
